Published values from different studies.
Each line is one published result; not all experiments were run side by side. ± gives the spread as reported.

Structure (SMILES)	assay	system	setting	tissue uptake
CCCC[C@@H]1NC(=O)[C@@H](NC(=O)[C@H](CCC(=O)O)NC(=O)CNC(=O)CN2CCN(CC(=O)O)CCN(CC(=O)O)CCN(CC(=O)O)CC2)CCCCNC(=O)C[C@@H](C(N)=O)NC(=O)[C@H](C(C)C)NC(=O)[C@@H]2CCCN2C(=O)[C@H](CCCNC(=N)N)NC(=O)CNC(=O)[C@H](Cc2c[nH]c3ccccc23)NC(=O)[C@H](CCCNC(=N)N)NC(=O)[C@@H](Cc2ccccc2)NC(=O)[C@H](Cc2c[nH]cn2)NC(=O)[C@H](CCC(=O)O)NC1=O [gallium-67 labelled]		normal C57 mice, liver	intravenous, 0.037 MBq, 2 h	0.46 ± 0.03 %ID/g
CCCC[C@H](NC(=O)CNC(=O)CNC(=O)CN1CCN(CC(=O)O)CCN(CC(=O)O)CC1)C(=O)N[C@H]1CC(=O)NCCCC[C@@H](C(N)=O)NC(=O)[C@H](Cc2c[nH]c3ccccc23)NC(=O)[C@H](CCCNC(=N)N)NC(=O)[C@@H](Cc2ccccc2)NC(=O)[C@H](Cc2c[nH]cn2)NC1=O [gallium-67 labelled]		female C57 mice, B16/F1 melanoma, pancreas	intravenous, 0.037 MBq, 2 h	0.54 ± 0.13 %ID/g
NC12CNCCNCC(NCc3ccc(CNC(=O)CCCC(=O)NCc4ccc(-c5nncnn5)cc4)cc3)(CNCCNC1)CNCCNC2.[64Cu+2]		athymic nude mice, SW1222 xenograft, small intestine with contents	12 h, pretargeting with huA33-TCO, 24 h interval	0.35 ± 0.08 %ID/g
CCCC[C@H](NC(=O)CNC(=O)CNC(=O)CN1CCN(CC(=O)O)CCN(CC(=O)O)CCN(CC(=O)O)CC1)C(=O)N[C@H]1CC(=O)NCCCC[C@@H](C(N)=O)NC(=O)[C@H](Cc2c[nH]c3ccccc23)NC(=O)[C@H](CCCNC(=N)N)NC(=O)[C@@H](Cc2ccccc2)NC(=O)[C@H](Cc2c[nH]cn2)NC1=O [gallium-67 labelled]		female C57 mice, B16/F1 melanoma, brain	intravenous, 0.037 MBq, 0.5 h	0.25 ± 0.07 %ID/g
CCCC[C@H](NC(=O)CN1CCC(NC(=O)CN2CCN(CC(=O)O)CCN(CC(=O)O)CCN(CC(=O)O)CC2)CC1)C(=O)N[C@H]1CC(=O)NCCCC[C@@H](C(N)=O)NC(=O)[C@H](Cc2c[nH]c3ccccc23)NC(=O)[C@H](CCCNC(=N)N)NC(=O)[C@@H](Cc2ccccc2)NC(=O)[C@H](Cc2c[nH]cn2)NC1=O [gallium-68 labelled]		C57BL/6J mice male B16-F10 tumour, bone	1 h post injection, unblocked	0.4 ± 0.1 %ID/g
CN1C(=O)[C@@H](Cc2ccc(O)c(I)c2)NC(=O)CNC(=O)[C@H](Cc2ccc3ccccc3c2)NC(=O)[C@H](CCCNC(=N)N)NC(=O)[C@H]1CCCNC(=O)c1ccc(CNC(=O)CN2CCN(CC(=O)O)CCN(CC(=O)O)CCN(CC(=O)O)CC2)cc1 [lutetium-177 labelled]	item: 177Lu radioactivity	female CB-17 SCID mice, Daudi xenograft, large intestine	intravenous, 0.16 nmol per mouse, 6 h	0.5 ± 0.16 %ID/g
O=C([O-])CN1CCN(CC(=O)[O-])CCN(CC(=O)NCCc2ccc3c(c2)C2C=CCC2C(c2cc4c(cc2Br)OCO4)N3)CCN(CC(=O)[O-])CC1.[111In+3] (stereo not drawn)	SPECT/CT imaging	mice with Hec50 tumour xenograft, liver	4 h	3.13 % ID
N=C(N)NCCC[C@@H]1NC(=O)[C@H](CCCCNC(=O)CON=C[C@H](F)[C@@H](O)[C@H](O)[C@H](O)CO)NC(=O)[C@@H](Cc2ccc(O)cc2)NC(=O)[C@H](CC(=O)O)NC(=O)CNC1=O [fluorine-18 labelled]		nude mice U-87 MG tumour, bone	intravenous, 0.5 h	0.71 ± 0.65 %ID/g
CC(C)[C@H](NC(=O)[C@@H]1CCCN1C(=O)[C@H](CCCNC(=N)N)NC(=O)[C@H](CS)NC(=O)[C@H](Cc1c[nH]c2ccccc12)NC(=O)[C@H](CCCNC(=N)N)NC(=O)[C@@H](Cc1ccccc1)NC(=O)[C@H](Cc1c[nH]cn1)NC(=O)[C@H](CCC(=O)O)NC(=O)[C@H](CS)NC(=O)[C@H](CS)NC(=O)CNC(=O)[C@@H]1CC(=O)N[C@@H](CCCNC(=N)N)C(=O)NCC(=O)N[C@@H](CC(=O)O)C(=O)N[C@H](Cc2ccc(O)cc2)C(=O)N1)C(N)=O [technetium-99m labelled]		C57 mice B16/F1 melanoma female, intestines	iv, 0.037 MBq, 24 h	1.44 ± 0.78 %ID
O=C([O-])CN1CCN(CC(=O)[O-])CCN(CC(=O)[O-])CCN(CC(=O)[O-])CC1.[64Cu+2]		healthy athymic nude mice, muscle	intravenous, 1 h	0.09 %ID/g
CC(C)[C@H](NC(=O)[C@@H]1CCCN1C(=O)[C@H](CCCNC(=N)N)NC(=O)[C@H](CS)NC(=O)[C@H](Cc1c[nH]c2ccccc12)NC(=O)[C@H](CCCNC(=N)N)NC(=O)[C@@H](Cc1ccccc1)NC(=O)[C@H](Cc1c[nH]cn1)NC(=O)[C@H](CCC(=O)O)NC(=O)[C@H](CS)NC(=O)[C@H](CS)NC(=O)[C@@H]1CC(=O)N[C@@H](CCCNC(=N)N)C(=O)NCC(=O)N[C@@H](CC(=O)O)C(=O)N[C@H](Cc2ccc(O)cc2)C(=O)N1)C(N)=O [technetium-99m labelled]		C57 mice B16/F1 melanoma female, heart	iv, 2 h, added: NDP-MSH 10 µg co-injected	0.41 ± 0.16 %ID/g
O=C([O-])c1cccc(CN(CCN(Cc2cn(Cc3ccccc3)nn2)Cc2cccc(C(=O)[O-])n2)Cc2cn(Cc3ccccc3)nn2)n1.[64Cu+2]		healthy athymic nude mice, muscle	intravenous, 24 h	0.48 %ID/g
